Assay results from different studies.
Every numbered part comes from another study and shows a few of its results, in no order. Values joined by “and” are separate records of one study, mostly repeats; a detail may differ.
Chain of UniProt O94806 (whole entry, looked up): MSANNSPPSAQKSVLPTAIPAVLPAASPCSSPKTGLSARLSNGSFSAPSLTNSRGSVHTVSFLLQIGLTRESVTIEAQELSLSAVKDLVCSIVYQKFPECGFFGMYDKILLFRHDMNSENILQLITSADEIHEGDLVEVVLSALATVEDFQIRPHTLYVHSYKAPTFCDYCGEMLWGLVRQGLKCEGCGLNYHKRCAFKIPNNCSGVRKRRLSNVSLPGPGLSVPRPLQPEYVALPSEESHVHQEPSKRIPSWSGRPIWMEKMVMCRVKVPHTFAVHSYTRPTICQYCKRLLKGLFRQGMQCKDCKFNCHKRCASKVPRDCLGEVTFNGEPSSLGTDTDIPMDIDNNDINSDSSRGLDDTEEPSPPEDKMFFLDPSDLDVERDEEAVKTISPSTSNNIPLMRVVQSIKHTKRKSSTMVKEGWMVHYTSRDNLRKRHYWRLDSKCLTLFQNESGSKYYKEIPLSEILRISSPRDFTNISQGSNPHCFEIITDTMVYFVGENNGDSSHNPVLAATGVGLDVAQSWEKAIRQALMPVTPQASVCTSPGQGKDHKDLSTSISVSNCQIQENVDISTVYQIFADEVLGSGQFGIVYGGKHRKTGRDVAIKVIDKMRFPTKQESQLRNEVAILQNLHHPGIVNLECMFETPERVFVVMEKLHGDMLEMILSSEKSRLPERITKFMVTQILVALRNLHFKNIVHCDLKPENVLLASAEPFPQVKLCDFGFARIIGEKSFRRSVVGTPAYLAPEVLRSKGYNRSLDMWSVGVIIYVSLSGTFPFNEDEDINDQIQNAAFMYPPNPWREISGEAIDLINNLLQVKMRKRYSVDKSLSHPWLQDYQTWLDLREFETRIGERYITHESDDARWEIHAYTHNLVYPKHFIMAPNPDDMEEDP
Chain of UniProt P14616 (whole entry, looked up): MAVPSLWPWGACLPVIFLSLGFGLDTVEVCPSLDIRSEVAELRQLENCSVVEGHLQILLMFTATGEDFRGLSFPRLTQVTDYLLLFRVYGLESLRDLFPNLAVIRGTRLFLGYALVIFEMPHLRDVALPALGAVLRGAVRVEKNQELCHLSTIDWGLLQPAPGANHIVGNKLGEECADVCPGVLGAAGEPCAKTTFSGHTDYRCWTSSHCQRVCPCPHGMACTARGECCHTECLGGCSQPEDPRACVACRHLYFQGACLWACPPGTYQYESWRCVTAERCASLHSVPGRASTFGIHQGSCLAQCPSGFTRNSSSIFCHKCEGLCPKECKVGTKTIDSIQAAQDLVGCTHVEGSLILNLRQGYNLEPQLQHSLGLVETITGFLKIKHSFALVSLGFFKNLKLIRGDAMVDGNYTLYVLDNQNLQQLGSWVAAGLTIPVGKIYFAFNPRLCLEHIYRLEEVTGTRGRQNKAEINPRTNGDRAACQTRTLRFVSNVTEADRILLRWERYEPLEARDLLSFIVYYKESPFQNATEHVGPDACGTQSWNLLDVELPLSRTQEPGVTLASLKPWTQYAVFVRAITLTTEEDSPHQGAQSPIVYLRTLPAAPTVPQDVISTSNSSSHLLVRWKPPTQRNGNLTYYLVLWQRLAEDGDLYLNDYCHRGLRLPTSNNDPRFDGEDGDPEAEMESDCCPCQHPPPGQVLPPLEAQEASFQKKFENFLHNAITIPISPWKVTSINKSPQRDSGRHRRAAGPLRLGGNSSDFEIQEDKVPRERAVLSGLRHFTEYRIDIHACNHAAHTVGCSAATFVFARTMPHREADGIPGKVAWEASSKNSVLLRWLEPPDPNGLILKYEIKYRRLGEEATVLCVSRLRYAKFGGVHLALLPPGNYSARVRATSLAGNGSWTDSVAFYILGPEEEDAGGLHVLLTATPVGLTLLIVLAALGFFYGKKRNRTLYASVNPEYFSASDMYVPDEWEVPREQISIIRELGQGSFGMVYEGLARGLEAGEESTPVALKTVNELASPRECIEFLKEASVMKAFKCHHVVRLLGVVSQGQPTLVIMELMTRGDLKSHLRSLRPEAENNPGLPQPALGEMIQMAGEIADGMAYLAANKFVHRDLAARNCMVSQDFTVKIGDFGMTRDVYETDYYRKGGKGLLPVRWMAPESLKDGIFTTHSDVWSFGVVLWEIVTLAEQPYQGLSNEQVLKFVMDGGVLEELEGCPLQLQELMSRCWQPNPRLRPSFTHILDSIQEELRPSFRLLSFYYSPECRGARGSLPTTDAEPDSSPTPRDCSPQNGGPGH
Chain of UniProt P51451 (whole entry, looked up): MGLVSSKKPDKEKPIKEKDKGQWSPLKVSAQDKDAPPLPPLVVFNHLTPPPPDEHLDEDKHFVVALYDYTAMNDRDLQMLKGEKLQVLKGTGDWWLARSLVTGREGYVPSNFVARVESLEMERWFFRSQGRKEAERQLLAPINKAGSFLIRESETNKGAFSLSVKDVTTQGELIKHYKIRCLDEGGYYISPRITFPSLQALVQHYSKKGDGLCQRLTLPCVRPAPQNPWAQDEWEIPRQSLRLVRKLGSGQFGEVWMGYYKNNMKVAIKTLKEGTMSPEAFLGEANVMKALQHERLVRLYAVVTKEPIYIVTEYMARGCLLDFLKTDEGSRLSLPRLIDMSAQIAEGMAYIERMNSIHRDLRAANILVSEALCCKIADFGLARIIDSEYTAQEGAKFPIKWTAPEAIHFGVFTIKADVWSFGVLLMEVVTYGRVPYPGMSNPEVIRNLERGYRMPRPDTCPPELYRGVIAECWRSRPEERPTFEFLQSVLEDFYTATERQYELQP
Chain of UniProt P15735 (whole entry, looked up): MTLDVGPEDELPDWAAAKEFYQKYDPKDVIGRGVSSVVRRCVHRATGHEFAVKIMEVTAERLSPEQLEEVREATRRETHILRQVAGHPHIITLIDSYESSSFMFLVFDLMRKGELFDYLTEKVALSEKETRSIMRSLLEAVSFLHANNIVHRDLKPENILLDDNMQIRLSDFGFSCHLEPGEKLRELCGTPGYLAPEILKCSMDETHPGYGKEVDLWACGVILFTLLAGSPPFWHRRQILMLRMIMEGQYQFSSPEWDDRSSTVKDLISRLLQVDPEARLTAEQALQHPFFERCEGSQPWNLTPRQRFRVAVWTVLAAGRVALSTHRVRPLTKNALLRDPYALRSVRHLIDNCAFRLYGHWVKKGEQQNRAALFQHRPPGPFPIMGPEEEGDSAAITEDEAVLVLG
Chain of UniProt Q99986 (whole entry, looked up): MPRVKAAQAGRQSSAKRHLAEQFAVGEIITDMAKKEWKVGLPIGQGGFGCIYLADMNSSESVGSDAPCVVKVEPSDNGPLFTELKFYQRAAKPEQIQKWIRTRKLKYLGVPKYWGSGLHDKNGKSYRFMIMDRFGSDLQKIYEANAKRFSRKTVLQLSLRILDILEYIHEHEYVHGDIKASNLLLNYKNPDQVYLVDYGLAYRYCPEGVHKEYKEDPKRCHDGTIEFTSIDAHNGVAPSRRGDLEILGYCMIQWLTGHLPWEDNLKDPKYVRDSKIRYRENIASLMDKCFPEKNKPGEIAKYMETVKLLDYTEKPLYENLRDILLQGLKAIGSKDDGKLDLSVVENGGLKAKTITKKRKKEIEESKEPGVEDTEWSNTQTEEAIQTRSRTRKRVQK
Chain of UniProt P08581 (whole entry, looked up): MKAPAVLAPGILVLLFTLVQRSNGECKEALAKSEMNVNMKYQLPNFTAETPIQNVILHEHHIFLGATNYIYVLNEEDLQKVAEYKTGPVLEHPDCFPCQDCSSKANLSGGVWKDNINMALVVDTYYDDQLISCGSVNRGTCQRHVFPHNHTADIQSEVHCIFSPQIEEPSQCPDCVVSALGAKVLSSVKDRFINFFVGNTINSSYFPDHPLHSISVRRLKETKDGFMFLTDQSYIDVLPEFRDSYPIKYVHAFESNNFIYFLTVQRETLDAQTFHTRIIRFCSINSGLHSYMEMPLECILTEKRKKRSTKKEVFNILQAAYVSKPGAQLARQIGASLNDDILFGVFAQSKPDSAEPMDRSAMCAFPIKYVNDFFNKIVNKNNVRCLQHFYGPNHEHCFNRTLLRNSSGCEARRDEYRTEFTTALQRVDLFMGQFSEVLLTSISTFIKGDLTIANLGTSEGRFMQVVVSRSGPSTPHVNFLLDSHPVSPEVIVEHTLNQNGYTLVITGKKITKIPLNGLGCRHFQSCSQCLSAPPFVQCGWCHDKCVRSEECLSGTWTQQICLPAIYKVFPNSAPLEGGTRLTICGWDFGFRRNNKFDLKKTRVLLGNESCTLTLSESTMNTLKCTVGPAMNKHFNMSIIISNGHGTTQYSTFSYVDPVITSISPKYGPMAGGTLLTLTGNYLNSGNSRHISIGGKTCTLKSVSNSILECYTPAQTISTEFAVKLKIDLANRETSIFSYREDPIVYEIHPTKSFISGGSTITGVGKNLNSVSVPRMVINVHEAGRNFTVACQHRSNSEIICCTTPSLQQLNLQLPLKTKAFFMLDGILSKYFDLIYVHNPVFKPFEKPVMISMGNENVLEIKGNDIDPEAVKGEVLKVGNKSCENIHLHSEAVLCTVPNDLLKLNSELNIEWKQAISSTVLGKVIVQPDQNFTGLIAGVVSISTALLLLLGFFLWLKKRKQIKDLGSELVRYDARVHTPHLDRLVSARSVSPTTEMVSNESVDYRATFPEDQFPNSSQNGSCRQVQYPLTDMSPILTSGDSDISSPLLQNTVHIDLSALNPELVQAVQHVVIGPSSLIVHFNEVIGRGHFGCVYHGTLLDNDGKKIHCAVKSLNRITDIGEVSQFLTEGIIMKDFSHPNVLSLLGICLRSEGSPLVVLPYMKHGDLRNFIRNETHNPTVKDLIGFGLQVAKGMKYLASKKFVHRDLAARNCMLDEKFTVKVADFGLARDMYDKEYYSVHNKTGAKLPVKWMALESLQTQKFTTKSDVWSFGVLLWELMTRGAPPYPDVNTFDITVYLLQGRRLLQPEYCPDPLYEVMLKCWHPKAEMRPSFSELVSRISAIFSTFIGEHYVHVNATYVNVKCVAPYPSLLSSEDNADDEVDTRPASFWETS

Sample 1
Structure (SMILES): CC(=O)N[C@@H](Cc1c[nH]c2ccccc12)C(=O)N[C@@H](CCC(=O)C=[N+]=[N-])C(=O)OC(C)C
Quantity: remaining compound
mouse EL4 tumour homogenate; 5 µM, 0.05 h, added: bestatin 10 µM: 0.157%
mouse EL4 tumour homogenate; 5 µM, 1 h, added: aprotinin 0.8 µM: 0.107%
human plasma; 20 µM, 60 min, 37 °C: 96%
EL4 tumour homogenate, mouse; 5 µM, 1 h, added: leupeptin 100 µM: 0.095%
mouse EL4 tumour homogenate; 5 µM, 0.05 h, added: dichlorvos 500 µM: 39%
mouse EL4 tumour homogenate; 5 µM, 1 h, added: dichlorvos 500 µM: 36%
mouse intestinal homogenate; 5 µM, 0.05 h, added: aprotinin 0.8 µM: 12.9%
mouse, EL4 tumour homogenate; 5 µM, 0.05 h, added: PMSF 1.0 mM: 78.3%
mouse EL4 tumour homogenate; 5 µM, 0 h, added: bestatin 10 µM: 100%
mouse intestinal homogenate; 5 µM, 0.05 h, added: PMSF 1.0 mM: 112%
C57BL/6 CES1-/- mouse GI homogenate; 20 µM, 60 min, pH 7.4: 11%

Sample 2
Compound: COc1cc2ncnc(N3CCN(C(=O)Nc4ccc(Oc5ccccc5)cc4)CC3)c2cc1OC
Effect on: enzyme activity
Mode: inhibitor
Concentration: 0.5 µM
Relative to: control
Quantity: remaining activity
MAP3K9 (Homo sapiens, UniProt P80192): 100%
INSRR (Homo sapiens, UniProt P14616): 96.8%
MAP4K5 (Homo sapiens, UniProt Q9Y4K4): 81.6%
DYRK2 (Homo sapiens, UniProt Q92630): 95.4%
VRK1 (Homo sapiens, UniProt Q99986): 77.4%
ULK1 (Homo sapiens, UniProt O75385): 110%
PHKG2 (Homo sapiens, UniProt P15735): 128%
ACVR1 (Homo sapiens, UniProt Q04771): 100%
RIPK2 (Homo sapiens, UniProt O43353): 93.7%
PLK1 (Homo sapiens, UniProt P53350): 96.6%
PRKD3 (Homo sapiens, UniProt O94806): 97.5%
NTRK2 (Homo sapiens, UniProt Q16620): 121%
RAF1 (Homo sapiens, UniProt P04049): 88%
SGK3 (Homo sapiens, UniProt Q96BR1): 97.6%
FGFR2 (Homo sapiens, UniProt P21802): 92.4%
TAOK1 (Homo sapiens, UniProt Q7L7X3): 81.6%
HCK (Homo sapiens, UniProt P08631): 91.7%
DSTYK (Homo sapiens, UniProt Q6XUX3): 113%

Sample 3
Cell line: A-375
Concentration: 100 µM
Time: 18 h
Quantity: viability
Cc1nc(C)c(Cl)c(O)c1Cl: 105%
Nc1cc(F)ccc1NC(=O)c1ccc(CNC(=O)/C=C/c2cccnc2)cc1: 56.6%
CN[C@@H]1[C@H](O)[C@H](NC)[C@H]2O[C@@]3(O)C(=O)C[C@@H](C)O[C@H]3O[C@@H]2[C@H]1O: 89.5% and 98%
Cc1ncc([N+](=O)[O-])n1C: 92.6%
CCC(=O)c1c(O)cc(O)cc1O: 69.5%
O=C(O)CSCC(=O)NC1CCSC1=O (centres unmarked): 61.5%
CO/N=C(\C(=O)N[C@@H]1C(=O)N2C(C(=O)O)=C(CSc3nc(=O)c(=O)[nH]n3C)CS[C@H]12)c1csc(N)n1: 96.6%
CC(=O)OCC(=O)[C@@]1(O)CC[C@H]2[C@@H]3CCC4=CC(=O)CC[C@]4(C)[C@@]3(F)[C@@H](O)C[C@@]21C: 103%

Sample 4
Structure (SMILES): Cn1cc(Cl)c2c(Oc3c(F)cc(Nc4cc(Cl)nc(N)n4)cc3F)ccnc21
Method: competition with immobilised ligand
Concentration: 0.1 µM
Quantity: remaining binding
FGFR3 (Homo sapiens, UniProt P22607, G697C); cell-free assay: 100%
PKN2 (Homo sapiens, UniProt Q16513); cell-free assay: 75%
EIF2AK2 (Homo sapiens, UniProt P19525); cell-free assay: 100%
STK4 (Homo sapiens, UniProt Q13043); cell-free assay: 94%
EPHB6 (Homo sapiens, UniProt O15197); cell-free assay: 100%
Aurora kinase A (AURKA, Homo sapiens, UniProt O14965); cell-free assay: 100%
Macrophage colony-stimulating factor 1 receptor, autoinhibited (CSF1R, Homo sapiens, UniProt P07333); cell-free assay: 89%
NEK5 (Homo sapiens, UniProt Q6P3R8); cell-free assay: 100%
eIF-2-alpha kinase GCN2, C-terminal kinase domain (EIF2AK4, Homo sapiens, UniProt Q9P2K8, S808G); cell-free assay: 100%
Insulin receptor (INSR, Homo sapiens, UniProt P06213); cell-free assay: 90%
CAMK4 (Homo sapiens, UniProt Q16566); cell-free assay: 96%
INSRR (Homo sapiens, UniProt P14616); cell-free assay: 100%
MET (Homo sapiens, UniProt P08581); cell-free assay: 90%
MAK (Homo sapiens, UniProt P20794); cell-free assay: 97%
SLK (Homo sapiens, UniProt Q9H2G2); cell-free assay: 98%
BLK (Homo sapiens, UniProt P51451); cell-free assay: 96%
TXK (Homo sapiens, UniProt P42681); binding: 100%
AXL (Homo sapiens, UniProt P30530); cell-free assay: 100%
PRKD3 (Homo sapiens, UniProt O94806); cell-free assay: 100%
CDK14 (Homo sapiens, UniProt O94921); cell-free assay: 100%
Tyrosine-protein kinase ABL1, phosphorylated (ABL1, Homo sapiens, UniProt P00519, H396P); cell-free assay: 95%
CDK3 (Homo sapiens, UniProt Q00526); cell-free assay: 100%
GRK7 (Homo sapiens, UniProt Q8WTQ7); cell-free assay: 82%
DAPK1 (Homo sapiens, UniProt P53355); cell-free assay: 100%
TNK2 (Homo sapiens, UniProt Q07912); cell-free assay: 85%

For quick reference, copied from above (sample 2):
VRK1 (Homo sapiens, UniProt Q99986): 77.4%
DSTYK (Homo sapiens, UniProt Q6XUX3): 113%
RIPK2 (Homo sapiens, UniProt O43353): 93.7%
FGFR2 (Homo sapiens, UniProt P21802): 92.4%
